Assay results pooled from the literature.
Parts stem from different laboratories: compare values within a part only.
Chain of UniProt P07949 (whole entry, unmodified, looked up): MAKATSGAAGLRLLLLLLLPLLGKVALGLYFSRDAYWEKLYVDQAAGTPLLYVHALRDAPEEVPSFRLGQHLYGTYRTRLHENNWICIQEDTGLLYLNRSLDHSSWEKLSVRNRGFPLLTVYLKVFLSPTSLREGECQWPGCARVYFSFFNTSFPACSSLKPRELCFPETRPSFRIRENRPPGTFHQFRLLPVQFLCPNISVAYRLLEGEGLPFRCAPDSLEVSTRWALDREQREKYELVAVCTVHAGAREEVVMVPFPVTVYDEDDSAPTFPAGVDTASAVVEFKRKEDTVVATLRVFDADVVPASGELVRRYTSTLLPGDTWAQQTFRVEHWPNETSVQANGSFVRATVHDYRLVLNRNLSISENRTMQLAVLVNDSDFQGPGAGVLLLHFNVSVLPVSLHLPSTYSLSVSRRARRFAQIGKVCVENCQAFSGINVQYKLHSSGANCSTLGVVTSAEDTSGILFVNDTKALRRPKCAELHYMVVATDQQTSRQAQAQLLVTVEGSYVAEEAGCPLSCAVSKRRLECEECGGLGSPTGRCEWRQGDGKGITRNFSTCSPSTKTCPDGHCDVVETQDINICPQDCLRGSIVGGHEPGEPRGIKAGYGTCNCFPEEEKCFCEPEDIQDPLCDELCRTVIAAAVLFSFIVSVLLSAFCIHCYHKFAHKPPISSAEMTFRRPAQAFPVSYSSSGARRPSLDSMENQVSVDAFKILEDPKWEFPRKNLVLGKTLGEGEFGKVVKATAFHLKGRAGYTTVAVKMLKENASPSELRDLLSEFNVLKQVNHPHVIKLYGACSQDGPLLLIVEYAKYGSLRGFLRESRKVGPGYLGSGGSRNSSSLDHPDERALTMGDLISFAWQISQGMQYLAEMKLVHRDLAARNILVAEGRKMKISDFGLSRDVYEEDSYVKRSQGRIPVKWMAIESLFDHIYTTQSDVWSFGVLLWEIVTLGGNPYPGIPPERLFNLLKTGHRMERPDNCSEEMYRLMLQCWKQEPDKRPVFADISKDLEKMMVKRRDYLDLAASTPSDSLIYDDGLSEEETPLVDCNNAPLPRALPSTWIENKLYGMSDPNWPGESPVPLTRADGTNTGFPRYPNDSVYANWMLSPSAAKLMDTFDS
Chain of UniProt Q02779 (whole entry, looked up): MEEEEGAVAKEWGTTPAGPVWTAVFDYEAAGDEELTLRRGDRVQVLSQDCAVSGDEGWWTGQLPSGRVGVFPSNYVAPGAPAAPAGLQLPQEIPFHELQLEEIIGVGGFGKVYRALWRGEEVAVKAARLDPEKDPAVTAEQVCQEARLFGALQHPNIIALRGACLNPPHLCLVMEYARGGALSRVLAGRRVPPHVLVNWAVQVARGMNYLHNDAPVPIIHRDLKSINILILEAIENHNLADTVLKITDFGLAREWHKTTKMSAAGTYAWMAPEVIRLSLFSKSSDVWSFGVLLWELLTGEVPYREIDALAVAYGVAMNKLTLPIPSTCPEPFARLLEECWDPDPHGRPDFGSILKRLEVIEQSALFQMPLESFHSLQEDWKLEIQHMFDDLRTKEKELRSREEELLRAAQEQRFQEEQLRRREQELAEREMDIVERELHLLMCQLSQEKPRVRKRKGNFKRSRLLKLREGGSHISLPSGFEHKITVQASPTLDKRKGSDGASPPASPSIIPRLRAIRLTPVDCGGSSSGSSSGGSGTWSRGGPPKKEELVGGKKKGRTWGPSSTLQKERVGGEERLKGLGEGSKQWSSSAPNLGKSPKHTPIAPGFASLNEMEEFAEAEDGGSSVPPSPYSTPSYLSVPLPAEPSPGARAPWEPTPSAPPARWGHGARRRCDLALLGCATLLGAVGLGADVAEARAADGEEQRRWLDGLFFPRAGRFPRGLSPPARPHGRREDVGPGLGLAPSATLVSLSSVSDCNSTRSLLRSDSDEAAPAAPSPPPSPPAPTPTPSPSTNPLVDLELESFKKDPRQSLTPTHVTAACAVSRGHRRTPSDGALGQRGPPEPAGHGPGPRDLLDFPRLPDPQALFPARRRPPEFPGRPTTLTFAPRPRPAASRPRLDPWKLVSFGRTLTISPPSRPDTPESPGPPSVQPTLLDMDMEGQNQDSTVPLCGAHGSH

Set 1 — observed: enzyme activity; action: inhibitor; tested at: 77 µM; reference: untreated
Target: DNA polymerase theta, ATPase domain (POLQ, Homo sapiens, UniProt O75417)
Chain of UniProt O75417 (whole entry, unmodified, looked up): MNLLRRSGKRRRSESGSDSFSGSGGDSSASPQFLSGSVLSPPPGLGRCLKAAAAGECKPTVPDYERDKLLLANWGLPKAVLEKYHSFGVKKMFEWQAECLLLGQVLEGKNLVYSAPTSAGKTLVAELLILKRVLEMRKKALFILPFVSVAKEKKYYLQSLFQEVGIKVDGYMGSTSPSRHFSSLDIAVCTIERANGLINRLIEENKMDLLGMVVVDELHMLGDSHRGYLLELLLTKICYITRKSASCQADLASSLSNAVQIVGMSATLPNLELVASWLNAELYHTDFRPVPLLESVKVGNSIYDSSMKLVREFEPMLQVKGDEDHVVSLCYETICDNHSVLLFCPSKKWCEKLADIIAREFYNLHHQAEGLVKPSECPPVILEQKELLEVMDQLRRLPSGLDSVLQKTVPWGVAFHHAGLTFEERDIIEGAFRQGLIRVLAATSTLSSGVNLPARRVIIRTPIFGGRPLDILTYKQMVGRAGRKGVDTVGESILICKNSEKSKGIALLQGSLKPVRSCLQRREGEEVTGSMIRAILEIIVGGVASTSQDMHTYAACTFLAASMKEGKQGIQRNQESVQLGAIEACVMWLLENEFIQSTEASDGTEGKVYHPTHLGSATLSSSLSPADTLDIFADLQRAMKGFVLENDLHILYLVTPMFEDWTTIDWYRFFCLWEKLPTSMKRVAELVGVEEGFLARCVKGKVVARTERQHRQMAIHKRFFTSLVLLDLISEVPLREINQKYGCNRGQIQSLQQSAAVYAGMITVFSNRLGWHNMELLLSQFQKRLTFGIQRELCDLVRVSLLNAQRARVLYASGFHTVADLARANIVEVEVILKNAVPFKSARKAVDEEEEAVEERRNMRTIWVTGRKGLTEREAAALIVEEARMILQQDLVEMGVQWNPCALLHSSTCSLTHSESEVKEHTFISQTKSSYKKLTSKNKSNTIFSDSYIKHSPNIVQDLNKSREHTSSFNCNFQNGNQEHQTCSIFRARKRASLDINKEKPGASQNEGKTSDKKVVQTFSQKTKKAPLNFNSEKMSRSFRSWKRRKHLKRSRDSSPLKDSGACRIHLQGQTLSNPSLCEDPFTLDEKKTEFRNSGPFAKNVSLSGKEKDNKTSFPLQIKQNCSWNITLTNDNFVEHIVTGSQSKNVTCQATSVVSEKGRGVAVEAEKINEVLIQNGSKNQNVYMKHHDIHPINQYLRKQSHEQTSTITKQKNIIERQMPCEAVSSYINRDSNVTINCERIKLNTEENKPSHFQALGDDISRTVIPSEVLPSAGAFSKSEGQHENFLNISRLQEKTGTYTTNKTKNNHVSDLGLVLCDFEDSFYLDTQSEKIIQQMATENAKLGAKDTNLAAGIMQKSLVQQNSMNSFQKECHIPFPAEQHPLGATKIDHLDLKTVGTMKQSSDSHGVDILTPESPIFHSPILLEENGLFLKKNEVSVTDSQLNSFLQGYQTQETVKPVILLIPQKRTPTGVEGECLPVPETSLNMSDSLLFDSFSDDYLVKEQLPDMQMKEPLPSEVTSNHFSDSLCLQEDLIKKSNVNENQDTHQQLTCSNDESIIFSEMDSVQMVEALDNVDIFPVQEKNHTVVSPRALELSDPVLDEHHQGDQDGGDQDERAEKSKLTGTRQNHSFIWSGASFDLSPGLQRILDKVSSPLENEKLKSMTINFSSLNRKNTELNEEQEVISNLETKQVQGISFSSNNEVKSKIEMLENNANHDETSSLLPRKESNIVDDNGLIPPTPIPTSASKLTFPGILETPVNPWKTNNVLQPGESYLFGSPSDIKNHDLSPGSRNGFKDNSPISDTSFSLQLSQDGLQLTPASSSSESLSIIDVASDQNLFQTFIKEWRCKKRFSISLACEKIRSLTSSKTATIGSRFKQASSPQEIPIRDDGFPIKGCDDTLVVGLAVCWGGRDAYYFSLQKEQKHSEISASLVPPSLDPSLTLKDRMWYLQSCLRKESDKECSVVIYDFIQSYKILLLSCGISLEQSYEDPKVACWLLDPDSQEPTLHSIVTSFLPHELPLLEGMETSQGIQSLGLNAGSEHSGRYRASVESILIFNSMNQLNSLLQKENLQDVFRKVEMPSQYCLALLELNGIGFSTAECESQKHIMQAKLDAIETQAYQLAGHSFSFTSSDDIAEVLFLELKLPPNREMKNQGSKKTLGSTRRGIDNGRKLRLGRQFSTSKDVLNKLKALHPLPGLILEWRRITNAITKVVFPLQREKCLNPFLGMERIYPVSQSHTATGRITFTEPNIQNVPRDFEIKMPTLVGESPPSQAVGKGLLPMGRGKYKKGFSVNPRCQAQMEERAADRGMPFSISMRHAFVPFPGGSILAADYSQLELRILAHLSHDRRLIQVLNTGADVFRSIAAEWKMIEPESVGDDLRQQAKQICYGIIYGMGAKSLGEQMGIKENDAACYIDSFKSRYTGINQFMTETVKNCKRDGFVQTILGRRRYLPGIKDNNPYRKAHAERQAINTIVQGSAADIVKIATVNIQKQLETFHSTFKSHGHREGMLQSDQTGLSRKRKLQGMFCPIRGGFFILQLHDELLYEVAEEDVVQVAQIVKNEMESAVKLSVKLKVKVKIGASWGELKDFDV
SMILES	remaining activity [%]
OC[C@H]1NC[C@H](O)[C@@H](O)[C@@H]1O	102
N#Cc1c(C2CCNCC2)cc(-c2c(O)cccc2OCC2CC2)nc1N	116
COc1ccc(CNc2nc(N3CCC[C@H]3CO)ncc2C(=O)NCc2ncccn2)cc1Cl	102

Set 2 — organism: Sarcocystis neurona; observed: parasite growth; tested at: 10 µM; time: 96 h
Compound	inhibition
C[C@H](CS)C(=O)N1CCC[C@H]1C(=O)O	-15.1%
Oc1ccc(/C=C/c2cc(O)cc(O)c2)cc1	-12.7%
O=C(O)CCc1nc(-c2ccccc2)c(-c2ccccc2)o1	-14%

Set 3 — observed: cell-free assay; technique: competition with immobilised ligand; tested at: 1 µM
SMILES: Cc1cc(NC(=O)c2cccc(S(F)(F)(F)(F)F)c2)cc(-n2ccn3nc(-c4cccnc4)cc23)c1
target	remaining binding [%]
Atypical kinase COQ8B, mitochondrial (COQ8B, Homo sapiens, UniProt Q96D53)	100
3-phosphoinositide-dependent protein kinase 1 (PDPK1, Homo sapiens, UniProt O15530)	92
Serine/threonine-protein kinase NIM1 (NIM1K, Homo sapiens, UniProt Q8IY84)	100
Serine/threonine-protein kinase SIK3 (SIK3, Homo sapiens, UniProt Q9Y2K2)	100
High affinity nerve growth factor receptor (NTRK1, Homo sapiens, UniProt P04629)	40.2
Serine/threonine-protein kinase PAK 6 (PAK6, Homo sapiens, UniProt Q9NQU5)	100
Phosphatidylinositol 4,5-bisphosphate 3-kinase catalytic subunit alpha isoform (PIK3CA, Homo sapiens, UniProt P42336)	100
G protein-coupled receptor kinase 3 (GRK3, Homo sapiens, UniProt P35626)	74.8
Proto-oncogene tyrosine-protein kinase receptor Ret (RET, Homo sapiens, UniProt P07949)	100
Tyrosine-protein kinase receptor Tie-1 (TIE1, Homo sapiens, UniProt P35590)	34.2
Tyrosine-protein kinase ABL1, phosphorylated (ABL1, Homo sapiens, UniProt P00519, F317L)	72.9
Tyrosine-protein kinase Lck (LCK, Homo sapiens, UniProt P06239)	96.6
Phosphorylase b kinase gamma catalytic chain, skeletal muscle/heart isoform (PHKG1, Homo sapiens, UniProt Q16816)	100
Mitogen-activated protein kinase 15 (MAPK15, Homo sapiens, UniProt Q8TD08)	100
Cyclin-dependent kinase 4, with cyclin D1 (CDK4, Homo sapiens, UniProt P11802)	82.9
Macrophage-stimulating protein receptor (MST1R, Homo sapiens, UniProt Q04912)	71
Ribosomal protein S6 kinase beta-1 (RPS6KB1, Homo sapiens, UniProt P23443)	66.2
Serine/threonine-protein kinase pim-3 (PIM3, Homo sapiens, UniProt Q86V86)	100
Proto-oncogene tyrosine-protein kinase receptor Ret (RET, Homo sapiens, UniProt P07949, V804L)	100
Misshapen-like kinase 1 (MINK1, Homo sapiens, UniProt Q8N4C8)	82
Serine/threonine-protein kinase PAK 3 (PAK3, Homo sapiens, UniProt O75914)	100
Mitogen-activated protein kinase 7 (MAPK7, Homo sapiens, UniProt Q13164)	90
Mitogen-activated protein kinase kinase kinase 10 (MAP3K10, Homo sapiens, UniProt Q02779)	100
Serine/threonine-protein kinase tousled-like 1 (TLK1, Homo sapiens, UniProt Q9UKI8)	100
Serine/threonine-protein kinase 25 (STK25, Homo sapiens, UniProt O00506)	59.5

Set 4 — technique: RNA Bind-n-Seq; molecule type: RNA; medium: in vitro; tested at: 20 nM; notes: 6-mer, flanks averaged, single round; with: 150 mM KCl; reference: input library; direction: higher = stronger binding
Target: TAR DNA-binding protein 43, full length, His tag (TARDBP, Homo sapiens, UniProt Q13148, residues 1-414)
Oligonucleotide	6-mer enrichment (R)
ACGCCU	0.633
UCCAUG	0.667
CCCCGG	0.821
AGGGAU	1.99
CUUGGG	1.78
ACUUAA	0.577
UUAAAA	0.625
GCAUCG	0.918

Set 5 — technique: RNA Bind-n-Seq; molecule type: RNA; medium: in vitro; tested at: 365 nM; reference: no-protein control; direction: higher = stronger binding
Target: RNA binding protein fox-1 homolog 2, RRM domain, GST-SBP tag (RBFOX2, Homo sapiens, UniProt O43251-10, residues 100-194)
Notes: natural RNA segment, single round, ends assumed
Target sequence (chain): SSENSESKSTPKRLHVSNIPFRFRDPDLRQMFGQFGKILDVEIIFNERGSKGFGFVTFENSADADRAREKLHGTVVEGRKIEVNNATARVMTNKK
Oligonucleotide	RBNS enrichment (R)
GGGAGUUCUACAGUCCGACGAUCGACCACAGCCGCGCUGCCGAGGGCCAAGCACAAAGGUUCCAGUGAGCGCAUGUCCCAGCCCCUGGUGGCCAGGCUCCCCUUGCUGAGCCGCUGCCACUUCACCCUGUGGGUGGAAUUCUCGGGUGCCAA	0.487
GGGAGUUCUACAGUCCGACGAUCGUCAGUACCAGUAGCUUCAGGGUCUGUCGUAGGAGCGAGGACAACUGUAAACACAGGGUCCGCUGAUCAAGUCCUUCUUGCUCAUUGCAGUUUGAUUUGCCAGCAGUCAUUGGAAUUCUCGGGUGCCAA	0.44
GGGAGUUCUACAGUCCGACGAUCUCUUUUACAGGCUUUGUCCUGAUCGUAGCAUAGAGAGAAUAGCUGGAUAUUUAACUUGUAUUCCAUUUUCCUCUGCCAGCGUUAGGUUAACUCCGUAAAAAGUGAUUCAGUGGAAUUCUCGGGUGCCAA	0.353
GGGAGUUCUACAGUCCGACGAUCUGGCGUGAUGCUUCGGGAGCCUCGAAGAAUCUAUGAAUGAAAUAGAAGUGUUAACUGUUGUUGGCAGUGUAAUAUAAAACUACCAUCUACAGCCACCAAAGGAAAGCAUCUGGAAUUCUCGGGUGCCAA	1.4
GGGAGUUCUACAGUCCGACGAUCAAGCAGGUCCAGGCGUUUCUAGAACCCUAGGGUGCACCAUCACUGUCUUUUCAGUGCAGGCUGUAACAACCCACUCAGGAGACAGUGAGAGUGAAAAGGUAUUAAGGAAAUGGAAUUCUCGGGUGCCAA	0.305
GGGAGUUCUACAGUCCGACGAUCGCCUCUCCAGGCCAGCUCCUCUGCCCACAUGUCAUACAAGGUGUGAAUUUGAGCACAGUCCAGAAAUGGAGACAUCCCACCCCCAGUUGAAUAAUGGCCCAUUCAUGCCAUGGAAUUCUCGGGUGCCAA	0.273
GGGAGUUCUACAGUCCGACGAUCGAGUUAGUUACCAGCUUCCUUGAUUUCAUCUAUACACAAUGAUUAAGUGCAUUUAAUAUUGGUAAUUUAAUGAAAAGCAUUCCUUGCCCAAUGGAUGUAAACAUUUUUGAUGGAAUUCUCGGGUGCCAA	0.645
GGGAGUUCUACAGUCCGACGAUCCAAACCCCGAGCUUCCAAGCCUUUUGCUCCAGCCCUGCGGCUUCCCCAGAAGCCUGGGCUUAGGGUGGAGAUGCCGCCUACACACGAUCCUGGCCCUCCACCUGCCUCCAUGGAAUUCUCGGGUGCCAA	0.754

Mixed results
CAMK2A: Calcium/calmodulin-dependent protein kinase type II subunit alpha (CAMK2A, Homo sapiens, UniProt Q9UQM7)
Chain of UniProt Q9UQM7 (whole entry, looked up): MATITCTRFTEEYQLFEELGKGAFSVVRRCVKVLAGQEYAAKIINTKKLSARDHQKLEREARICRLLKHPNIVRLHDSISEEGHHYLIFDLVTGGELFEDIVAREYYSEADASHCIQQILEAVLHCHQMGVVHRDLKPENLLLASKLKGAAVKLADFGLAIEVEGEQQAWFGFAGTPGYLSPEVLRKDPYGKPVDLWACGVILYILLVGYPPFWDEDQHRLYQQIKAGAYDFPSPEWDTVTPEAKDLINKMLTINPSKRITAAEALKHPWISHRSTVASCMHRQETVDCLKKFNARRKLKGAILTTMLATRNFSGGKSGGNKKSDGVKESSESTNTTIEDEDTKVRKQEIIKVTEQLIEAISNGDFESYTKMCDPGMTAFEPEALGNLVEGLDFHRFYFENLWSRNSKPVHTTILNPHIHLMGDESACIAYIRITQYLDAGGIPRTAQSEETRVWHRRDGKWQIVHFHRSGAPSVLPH
Compound	target or system	test	test system	conditions	scale	endpoint	value
C=C(C)C(=O)O[C@H]1CC2=C[C@@H](C/C(C)=C/[C@H]3OC(=O)C(=C)[C@H]13)OC2=O	CAMK2A	enzyme activity, inhibitor	–	10 µM	–	inhibition	-21%
CC(=O)c1ccc(/C=C/c2ccc(C(C)(C)C)cc2)n1C	–	–	mouse, microsomes or S9	2 µM, 0.5 h	–	remaining compound	83%
CCCCCCC(=O)OCC(COC(=O)CCCCCC)OC(=O)CCCCCC	CAMK2A	enzyme activity, inhibitor	–	10 µM	–	inhibition	0%
CCOC(=O)[C@H](Cc1ccc([N+](=O)[O-])cc1)NC(=O)c1ccccc1	mouse MPNST tumor cells	high-content immunofluorescence imaging, refers to: nuclear SOX9	–	10 µM, 12 h, mean of 2 replicates	reference: DMSO control, higher = more nuclear SOX9	nuclear SOX9 intensity	103 % of DMSO
COc1cc2c(cc1OC)[C@H]1[C@@H](C)c3ccc(OC)c(OC)c3CN1CC2	CAMK2A	enzyme activity, inhibitor	–	10 µM	–	inhibition	-10%
O=C(Nc1cnn(-c2csc(C(=O)NC3COC3)c2)c1)Nc1c(F)cccc1Cl	Fibroblast growth factor receptor 1 (FGFR1, Homo sapiens, UniProt P11362)	enzyme activity	–	5 µM	reference: untreated control	remaining activity	93.2%
COc1ccc2[nH]cc(C3CCN(CC(O)COc4ccccc4)CC3)c2c1 (stereo not drawn)	Beta-1 adrenergic receptor (ADRB1, Homo sapiens, UniProt P08588)	antagonist	–	–	–	IC50	≥ 100 µM
